Measurements collected from several papers.
Each line is one published result; not all experiments were run side by side.
FOXA2 forkhead domain: Hepatocyte nuclear factor 3-beta, forkhead domain (FOXA2, Homo sapiens, UniProt Q9Y261, residues 142-269)
Sequence of UniProt Q9Y261 (142-269, looked up): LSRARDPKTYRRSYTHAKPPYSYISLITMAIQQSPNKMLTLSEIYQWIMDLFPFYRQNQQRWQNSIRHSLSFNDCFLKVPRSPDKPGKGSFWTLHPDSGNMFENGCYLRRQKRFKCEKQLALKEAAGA
KAT6A winged helix 2, GST fusion: Histone acetyltransferase KAT6A, winged helix 2, GST fusion (KAT6A, Homo sapiens, UniProt Q92794, residues 85-181)
CBF1 full length, His-tagged: Centromere-binding protein 1, full length, His-tagged (CBF1, Saccharomyces cerevisiae, UniProt P17106, residues 1-351)
Sequence of UniProt P17106 (whole entry, looked up): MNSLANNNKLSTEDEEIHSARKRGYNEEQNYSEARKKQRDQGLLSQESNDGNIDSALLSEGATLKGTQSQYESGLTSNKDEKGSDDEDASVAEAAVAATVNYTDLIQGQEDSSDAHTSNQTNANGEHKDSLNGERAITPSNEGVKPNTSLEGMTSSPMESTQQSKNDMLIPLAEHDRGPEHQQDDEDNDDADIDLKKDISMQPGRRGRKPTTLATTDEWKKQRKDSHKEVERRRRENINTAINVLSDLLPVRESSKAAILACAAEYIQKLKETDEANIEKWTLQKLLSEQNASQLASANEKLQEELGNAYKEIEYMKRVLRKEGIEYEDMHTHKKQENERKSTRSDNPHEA
Sequence of UniProt Q92985 (whole entry, unmodified, looked up): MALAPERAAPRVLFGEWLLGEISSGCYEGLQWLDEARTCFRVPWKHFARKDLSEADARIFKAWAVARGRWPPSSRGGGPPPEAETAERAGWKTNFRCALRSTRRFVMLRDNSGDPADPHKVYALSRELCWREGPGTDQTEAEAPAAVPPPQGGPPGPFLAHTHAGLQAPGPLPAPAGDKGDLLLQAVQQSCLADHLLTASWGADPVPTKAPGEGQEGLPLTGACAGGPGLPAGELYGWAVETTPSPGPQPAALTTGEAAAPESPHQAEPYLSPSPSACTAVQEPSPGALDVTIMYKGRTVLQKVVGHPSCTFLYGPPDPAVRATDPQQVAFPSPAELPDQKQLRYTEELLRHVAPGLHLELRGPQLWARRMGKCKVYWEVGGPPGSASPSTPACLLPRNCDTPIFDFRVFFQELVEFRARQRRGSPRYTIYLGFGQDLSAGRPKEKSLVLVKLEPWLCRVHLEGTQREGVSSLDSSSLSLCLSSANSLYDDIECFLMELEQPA

AACAATTC  E-score (FOXA2 forkhead domain; protein-binding microarray; double-stranded DNA, one strand shown, in vitro; not given, k-mer, scored over probes, only values ≥0.25; higher = stronger binding): 0.251
ATCTTTCG  E-score (KAT6A winged helix 2, GST fusion; protein binding microarray; double-stranded DNA, one strand shown, in vitro; not given, 8-mer, flanks averaged, mean of 2 arrays, mostly near background; baseline: not given, higher = stronger binding): 0.00633
GCCTAGCACTTAGGACTGGACACAGGGTTAGTGCTAGTCTTGATTCGCTTGACGCTGCTG  fitted relative affinity (Interferon regulatory factor 5, full length, phosphomimetic (IRF5, Homo sapiens, UniProt Q13568-2, residues 1-514, S451D/S453D/S456D/S462D); protein-binding microarray; double-stranded DNA, one strand shown, in vitro; 940 nM top, 60-bp whole probe, with: salmon DNA 0.4 mg/ml; baseline: random background probes, higher = stronger binding): -0.5 z-score
TGAGGATGGCTATGGCATGTGGTAGTGGGATTAGAGGTCTTGATTCGCTTGACGCTGCTG  fluorescence intensity (CBF1 full length, His-tagged; competition protein-binding microarray; double-stranded DNA, one strand shown, in vitro; 2 µM, whole 60-bp probe, lowest competitor level, with: Pho4 competitor, 0.05 µM; higher = stronger binding): 71.3 a.u.
PhoQ, residues 284 288 289 292 302 303 TSTLRA  fold induction (PhoP, residues 12 14 15 18 19 DLLYY (Escherichia coli, UniProt P23836); Sort-seq, measured: YFP reporter; E. coli; PhoQ-PhoP variant library, with: 10 µM Mg2+; baseline: high Mg2+ state, higher = stronger signaling): 0.293
GCCTAGCACTTAGGTTTCGGTTCCGGCTAGTGCTAGGTCTTGATTCGCTTGACGCTGCTG  fitted relative affinity (Interferon regulatory factor 7, full length, phosphomimetic (IRF7, Homo sapiens, UniProt Q92985, residues 1-503, S471D/S472D/S475D/S476D/S477D/S483D/S484D/S487D); protein-binding microarray; double-stranded DNA, one strand shown, in vitro; 2200 nM top, 60-bp whole probe, with: salmon DNA 0.4 mg/ml; baseline: random background probes, higher = stronger binding): 11.4 z-score
AGCTTAAG  E-score (KAT6A winged helix 2, GST fusion; protein binding microarray; double-stranded DNA, one strand shown, in vitro; not given, 8-mer, flanks averaged, mean of 2 arrays, mostly near background; baseline: not given, higher = stronger binding): -0.0149
TGCGCAACAACTTGAGGCGTGGGTGTATGTCTAGAAGTCTTGATTCGCTTGACGCTGCTG  fluorescence intensity (CBF1 full length, His-tagged; competition protein-binding microarray; double-stranded DNA, one strand shown, in vitro; 2 µM, whole 60-bp probe, lowest competitor level, with: Pho4 competitor, 0.05 µM; higher = stronger binding): 67.8 a.u.
ATTTATTC  E-score (FOXA2 forkhead domain; protein-binding microarray; double-stranded DNA, one strand shown, in vitro; not given, k-mer, scored over probes, only values ≥0.25; higher = stronger binding): 0.261

For quick reference, copied from above:
ATTTATTC  E-score (FOXA2 forkhead domain; protein-binding microarray; double-stranded DNA, one strand shown, in vitro; not given, k-mer, scored over probes, only values ≥0.25; higher = stronger binding): 0.261
